Literature values, collected from citations in different studies.
Lines come from different studies, so protocols differ. ± marks the error that the study gave. Converted amounts (≈) assume the structure as drawn.
Sequence of UniProt P41145 (whole entry, looked up): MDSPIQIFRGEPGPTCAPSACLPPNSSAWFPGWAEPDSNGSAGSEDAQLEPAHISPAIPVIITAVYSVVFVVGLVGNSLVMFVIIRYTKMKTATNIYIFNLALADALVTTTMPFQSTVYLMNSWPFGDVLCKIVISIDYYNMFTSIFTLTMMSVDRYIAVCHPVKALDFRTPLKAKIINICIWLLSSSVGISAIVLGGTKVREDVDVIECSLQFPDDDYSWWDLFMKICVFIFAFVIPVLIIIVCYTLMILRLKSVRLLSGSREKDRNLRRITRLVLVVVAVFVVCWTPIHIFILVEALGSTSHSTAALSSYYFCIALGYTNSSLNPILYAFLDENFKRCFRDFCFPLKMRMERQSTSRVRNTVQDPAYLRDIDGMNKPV
Sequence of UniProt P33535 (whole entry, looked up): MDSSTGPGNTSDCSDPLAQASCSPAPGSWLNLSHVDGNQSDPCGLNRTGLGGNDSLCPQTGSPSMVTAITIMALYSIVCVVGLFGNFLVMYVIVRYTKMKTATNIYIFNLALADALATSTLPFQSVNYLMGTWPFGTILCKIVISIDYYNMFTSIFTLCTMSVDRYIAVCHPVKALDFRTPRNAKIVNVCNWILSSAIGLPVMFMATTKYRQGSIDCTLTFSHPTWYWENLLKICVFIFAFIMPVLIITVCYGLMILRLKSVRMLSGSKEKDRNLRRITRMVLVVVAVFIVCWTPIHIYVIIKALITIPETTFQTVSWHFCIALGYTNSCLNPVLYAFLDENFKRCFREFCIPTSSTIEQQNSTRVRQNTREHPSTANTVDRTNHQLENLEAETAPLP

| Structure (SMILES) | tested on | test | system | conditions | scale | measurement | value |
| --- | --- | --- | --- | --- | --- | --- | --- |
| Nc1cccc2c1C(=O)N(C1CCC(=O)NC1=O)C2=O (stereo not drawn) |  |  | human, relapsed/refractory multiple myeloma |  |  | MTD | 4 mg |
| OCCN1CCN(CCC=C2c3ccccc3Sc3ccc(C(F)(F)F)cc32)CC1 | MCF7 | microarray, measured: BTG1 |  | concentration not given | relative to: DMSO | mRNA fold change | 1.36 |
| CN1CC[C@]23c4c5ccc(O)c4O[C@H]2[C@@H](O)CC[C@H]3[C@H]1C5 |  |  |  | pH 7.4 |  | logD | -0.47 |
| Cc1cc(O)cc(C)c1C[C@H](N)C(=O)N[C@@H]1CCNc2ccc(Cc3ccc4ccccc4c3)cc21 | Oprm1 (Rattus norvegicus, UniProt P33535) | agonist |  | concentration not given |  | stimulation | 96 ± 3% |
| CCOC(=O)[C@@H]1CSCC(=O)N[C@H](CC)C(=O)N(C)[C@@H](C)C(=O)N[C@@H](CC(C)C)C(=O)N(C)[C@H](C)C(=O)N(CC(C)C)CC(=O)N[C@H](CC(C)C)C(=O)N(C)[C@@H](C)C(=O)N[C@@H](CC(C)C)C(=O)N1C | MDCK |  |  |  |  | log permeability (Pe) | -5.19 |
| COc1ccc2c3c1O[C@H]1[C@@H](O)CC[C@H]4[C@@H](C2)N(C)CC[C@@]341 |  |  |  | pH 7.4 |  | logD | -0.34 |
| CN[C@H](CC(C)C)C(=O)N[C@H]1C(=O)N[C@@H](CC(N)=O)C(=O)N[C@H]2C(=O)N[C@H]3C(=O)N[C@H](C(=O)N[C@H](C(=O)O)c4cc(O)cc(O)c4-c4cc3ccc4O)[C@H](O)c3ccc(c(Cl)c3)Oc3cc2cc(c3O[C@@H]2O[C@H](CO)[C@@H](O)[C@H](O)[C@H]2O[C@H]2C[C@](C)(N)[C@H](O)[C@H](C)O2)Oc2ccc(cc2Cl)[C@H]1O | Mycolicibacterium smegmatis |  | mc2155 |  |  | MIC | 4.5 µg/mL (≈ 3.11 µM) |
| CC(=O)N1CC[C@@H](NC(=O)[C@@H](N)Cc2c(C)cc(O)cc2C)c2cc(Cc3ccccc3)ccc21 | OPRK1 (Homo sapiens, UniProt P41145) | agonist |  | concentration not given |  | KOR stimulation | 29 ± 4.7% |
| Cc1cccc(-c2[nH]c(CNc3ccccc3F)nc2-c2ccc3ncnn3c2)n1 |  |  | rat, male | 13 weeks, repeated dose |  | NOAEL | 20 mg/kg/day |

Repeated from above:
| Structure (SMILES) | tested on | test | system | conditions | scale | measurement | value |
| --- | --- | --- | --- | --- | --- | --- | --- |
| CN1CC[C@]23c4c5ccc(O)c4O[C@H]2[C@@H](O)CC[C@H]3[C@H]1C5 |  |  |  | pH 7.4 |  | logD | -0.47 |
